# Assay results collected from several papers.
# “And” joins repeats or separate records; there may be more than shown. Numbers after ± are the reported error.
Compound,tested on,assay,system,setting,how to read,measurement,value
Cc1cc(-c2nccc3c2ccn3CC(=O)Nc2ccc(-c3cnccn3)cn2)ccn1,,,human,"5 mg once daily, multiple ascending dose",,subjects with Headache adverse event,0%
O=C(N[C@H](Cc1c[nH]c2ccccc12)C(=O)Nc1ccncc1)c1ccc(-c2ccc(F)c(C(F)(F)F)c2)cc1F,,,"Swiss Webster mouse, female, muscle","oral, 50 mg/kg, 8 h, 20% HPβCD vehicle",,concentration,4.03 µM
O=C(O)CCC(=O)O.[2H]C([2H])([2H])Oc1cc(C)c2[nH]ccc2c1CN1CC[C@@H](C2CC2)C[C@H]1c1ccc(C(=O)O)cc1,,,healthy Chinese subjects,"400 mg, single ascending dose",,subjects with any TEAE,50%
CC(C)C(=O)O[C@H]1[C@H](C)OC(=O)[C@@H]1Cc1ccccc1,,,cabbage,"concentration not given, foliar application",,share of total radioactive residue,≤ 13 % TRR
CC1=C(/C=C/C(C)=C/C=C/C(C)=C\C(=O)O)C(C)(C)CCC1,,,FaSSIF,literature solubility over dose,,dose-adjusted solubility,0.000638 mL⁻¹
COc1c(O)c(C)cc2c1C(=O)c1c(O)cccc1C2=O,HK-2 co-cultured with HepaRG,MTT,,"33.33 µM, 24 h",reference: untreated control,viability,97.6 ± 13.8%
CCc1nc(C(N)=O)c(Nc2ccc(N3CCC(N4CCN(C)CC4)CC3)c(OC)c2)nc1NC1CCOCC1,,,"Japanese patients, plasma","oral, 300 mg, cycle 0 day -2, single dose, median",,AUC(0-24),5370 ng·h/mL
N#Cc1ccc2c(c1)[C@H]1CCCN(C(=O)c3ccc4[nH]cnc4c3)[C@H]1C2,,,"human, plasma","80 mg once daily, day 21",,pre-dose plasma concentration,1740 nmol/L
CCN1/C(=C/C(C)=O)Sc2ccc(F)cc21,,,cynomolgus monkey,"oral, 100 mg/kg, 4 h post-dose",,systolic blood pressure,116 ± 4 mmHg
C=CC(=O)N1CCC([C@@H]2CCNc3c(C(N)=O)c(-c4ccc(Oc5ccccc5)cc4)nn32)CC1,,,rat plasma,"2 ng/mL, 4 h, 10 °C, autosampler",reference: nominal concentration,stability relative error,-3.4%
C1CCCC1.C1CCCC1.[Cl][W][Cl],,cyclic voltammetry,,,reference: Ag/AgCl,oxidation potential,185 mV
Cc1cc(Nc2ccc(S(F)(F)(F)(F)F)cc2)n2nc(C(C)(F)F)nc2n1,,,Plasmodium vivax malaria patients,"oral, 800 mg",,adverse event Pyrexia,57.1%
CCC[C@H]1CC[C@H](c2ccc(C#N)cc2)CC1,,,"Sprague-Dawley rat, female, fetus","1000 ng/mL in perfusate, 50 (unit not given), middle dose, mixture of 21 LCMs",,fetal accumulation,1.55 ± 0.88 ng/g
C=CCN1CC(=O)N2[C@@H](Cc3ccc(O)cc3F)C(=O)N(Cc3cccc(N4CC(N5CCN(CC)CC5)C4)n3)C[C@@H]2N1C(=O)NCc1ccccc1,,,advanced solid tumour patients,"oral, 80 mg twice daily, any grade, dose-escalation",,treatment-related AST increased,0%
Cn1cnc2c(F)c(Nc3ccc(Br)cc3Cl)c(C(=O)NOCCO)cc21,,,"human, plasma","oral, dose not given, transit compartment absorption",,central volume of distribution,38 L
Cc1nsc(-c2nnc3n2CCN(C(=O)c2ccc(F)cc2)[C@@H]3C)n1,,equilibrium dialysis,"rat, brain homogenate","5 µM, 4 h, pH 7.4",,brain fraction unbound,> 50%
CO[C@H]1C[C@@H]2CC[C@@H](C)[C@@](O)(O2)C(=O)C(=O)N2CCCC[C@H]2C(=O)O[C@H]([C@H](C)C[C@@H]2CC[C@@H](O)[C@H](OC)C2)CC(=O)[C@H](C)/C=C(\C)[C@@H](O)[C@@H](OC)C(=O)[C@H](C)C[C@H](C)/C=C/C=C/C=C/1C,,,healthy adult horses,"oral, 0.06 mg/kg, 4 h",,heart rate,33.5 ± 2.8 beats/min
CC[C@H](C)[C@H](NC(C)=O)C(=O)N[C@H]1CSSC[C@@H](C(=O)N[C@H](C(N)=O)[C@@H](C)O)NC(=O)[C@H](CCCNC(=N)N)NC(=O)[C@H](Cc2c[nH]cn2)NC(=O)[C@H](Cc2cccc3ccccc23)NC(=O)CNC(=O)[C@H](Cc2c[nH]c3ccccc23)NC(=O)[C@H](CC(=O)O)NC(=O)[C@H](CCC(N)=O)NC(=O)[C@H](Cc2cn(C)c3ccccc23)NC(=O)[C@H](C(C)C)NC1=O,,"isocratic RP-HPLC, C18","32% acetonitrile, phosphate pH 7.4, 1% TFA",25 °C,,retention factor,10.132 ± 0.005
O=C(O)c1cc(O)c2c(c1)C(=O)c1cccc(O[C@@H]3O[C@H](CO)[C@@H](O)[C@H](O)[C@H]3O)c1C2=O,HK-2 co-cultured with HepaRG,MTT,,"33.33 µM, 24 h",reference: untreated control,cell viability,105 ± 9.96%
Cc1nc(-c2ccc(OCC(C)C)c(C#N)c2)sc1C(=O)O,,,"KM mouse, chronic hyperuricaemia model","dose not given, day 29",,body weight,41.6 g and 36.8 g and 38.8 g and 34.6 g and 40.8 g and 45 g
CC[C@H](C)[C@H](NC(C)=O)C(=O)N[C@H]1CSSC[C@@H](C(=O)N[C@H](C(N)=O)[C@@H](C)O)NC(=O)[C@H](CCCNC(=N)N)NC(=O)[C@H](Cc2c[nH]cn2)NC(=O)[C@H](C)NC(=O)CNC(=O)[C@H](Cc2c[nH]c3ccccc23)NC(=O)[C@H](CC(=O)O)NC(=O)[C@H](CCC(N)=O)NC(=O)[C@H](Cc2cn(C)c3ccccc23)NC(=O)[C@H](C(C)C)NC1=O,,"RP-HPLC, C18",28% acetonitrile isocratic,pH 7.4,,retention factor,5.901 ± 0.006
CCn1cc(C(=O)N2CCOCC2)c(=O)c2cc(NC3Cc4ccccc4C3)cnc21,,,"human, fasted","oral suspension, 15 mg single dose, arithmetic mean",,AUC(0-last),504 ng·h/mL
CC[C@H](C)CCCCC(=O)N[C@@H](CCN)C(=O)N[C@H](C(=O)N[C@@H](CCN)C(=O)N[C@H]1CCNC(=O)[C@H]([C@@H](C)O)NC(=O)[C@H](CCN)NC(=O)[C@H](CCN)NC(=O)[C@H](CC(C)C)NC(=O)[C@@H](Cc2ccccc2)NC(=O)[C@H](CCN)NC1=O)[C@@H](C)O,,,"human, mild renal insufficiency, urine","intravenous, 0.75 mg/kg, 0-6 h, arithmetic mean",,urinary excretion,1.5%
CN1C[C@H](COc2nccc3c(NCc4ccco4)cc(Cl)nc23)OC1=O,,Langendorff heart,"rabbit, isolated heart","concentration not given, positive if change >2 SD",,LV dP/dt max,negative
Cl.[2H]C([2H])([2H])CC(=O)c1cnc(NC(=O)C2CC2)cc1Nc1cccc(-c2ncn(C([2H])([2H])[2H])n2)c1OC,,geometric mean,human,"oral, 5 mg single dose, fasted, liquid",,Vz/F,186 L
COc1ccc2c(=O)n(C)c(-c3ccccc3)nc2c1,,,"male Sprague-Dawley rat, bladder","oral, 30 mg/kg, 0.25 h",reference: bladder over plasma,tissue/plasma ratio,4.12
Cc1c(C(=O)O)ccc2c3n(nc12)[C@@H]1[C@H](C3)N(CC2CC2)[C@@]2(C(=O)Nc3cc(Cl)ccc32)[C@H]1c1cccc(Cl)c1F,,,"Chbb:Beagle dog, male, plasma",intravenous,,mean residence time,2.4 h
C[Si](C)(C)O[Si](C)(C)C,,,,"concentration not given, temperature rise 30 °C",,change in log KOA,-0.6 log units
Cn1cc(Nc2nccc(-c3ccc4c(c3)CN(C3COC3)CC[C@H]4NC(=O)c3cn(C(C)(C)C)nn3)n2)cn1,,,"human, whole blood","300 mg twice daily, day 14",reference: pre-dose baseline,lymphocyte count change,3.95%
CC(C)Nc1nc2cc(Cl)c(Cl)cc2n1[C@H]1O[C@@H](CO)[C@H](O)[C@@H]1O,,population PK model,human,"oral, 800 mg, no proton pump inhibitor",,Ka,0.697 h⁻¹
O=C1Nc2ccc(Cl)cc2[C@@](C#CC2CC2)(C(F)(F)F)O1,,,"human, plasma","oral, 600 mg, day 28, mean",,trough plasma concentration,2690 ng/mL
CC[C@H]1CC[C@H](c2ccc(-c3ccc(F)c(F)c3)cc2)CC1,,,"rat, fetus","5000 ng/mL in perfusate, high dose, mixture of 21 LCMs",,fetal accumulation,0.98 ± 0.88 ng/g
NC(N)=NCCC[C@@H](N)C(=O)N[C@@H](CCCN=C(N)N)C(=O)N1CCC[C@H]1C(=O)N1C[C@H](O)C[C@H]1C(=O)NCC(=O)N[C@@H](Cc1cccs1)C(=O)N[C@@H](CO)C(=O)N1Cc2ccccc2C[C@@H]1C(=O)N1[C@H](C(=O)N[C@@H](CCCN=C(N)N)C(=O)O)C[C@@H]2CCCC[C@@H]21,,popPK base model typical value,human,"subcutaneous, dose not given, reference weight 70 kg",,central volume (Vc/F),19.6 L
CNC(=O)c1ccc(-c2cnc3ncc(Cc4ccc5ncccc5c4)n3n2)cc1F,,"refers to: Insomnia, all grades",cancer patients,"oral, 600 mg twice daily, other expansion cohort, any causality",,patients with adverse event,6%
CCOc1c([C@H](C)n2nc(C)c3c(N)ncnc32)cc(Cl)c(F)c1[C@@H]1CNC(=O)C1,,refers to: QTcF ≤ 450 ms,previously treated B-cell malignancy,"oral, dose not given, all doses, overall population",,share of ECG observations,94.7%
CCCCCN1C[C@H](O)[C@@H](O)[C@H](O)[C@@H]1CO,,LC-MS/MS,"Hexb-/- mice, male, brain",300 mg/kg/day,,mean brain concentration,296 ng/g
CCc1cc(C(=O)NC)c2nccc(N3CCc4c(cc(Cn5ccnc5)cc4-c4cn(C)nc4C(F)(F)F)C3=O)c2c1,,,Sprague Dawley rats,"oral, 100 mg/kg once daily, 7 days",,serum TBIL level,2.4 ± 0.35 µmol/L
Cc1ccc([C@@H]2O[C@H](CO)[C@@H](O)[C@H](O)[C@H]2O)cc1Cc1ccc(-c2ccc(F)cc2)s1,,,Japanese type 2 diabetes patients,"100 mg, day 5, 24 h urine collection",reference: baseline,urinary sodium excretion change,30.6 mEq
CNC(=O)c1ccc(-c2cnc3ncc(Cc4ccc5ncccc5c4)n3n2)cc1F,,,healthy human subjects,"oral, 200 mg, Diarrhea, grade 3, all causality, added: itraconazole 200 mg/day",,subjects with adverse event,0%
CNCc1ccc(-c2[nH]c3cc(F)cc4c3c2CCNC4=O)cc1,,,patients,"oral, 360 mg twice daily, all grades",,abdominal pain incidence,25%
CN(C(=O)n1cnc(-c2cccnc2)c1)C1CCCCC1,,,"Wistar rat, cerebral cortex","oral, 10 mg/kg/day of BIA 10-2474, 24 h, repeated 5 days",,concentration,8.8 ± 0.2 ng/g
Cc1cc([C@H]2C[C@H]3[C@@H](CF)SC(N)=N[C@@]3(c3ccc(F)cc3F)CO2)on1,,,"male 129/SVE wild-type mouse, brain","subcutaneous, 100 mg/kg, 3 h",,brain concentration,3.2 µM

# For quick reference, copied from above:
Compound,tested on,assay,system,setting,how to read,measurement,value
Cc1nc(-c2ccc(OCC(C)C)c(C#N)c2)sc1C(=O)O,,,"KM mouse, chronic hyperuricaemia model","dose not given, day 29",,body weight,41.6 g and 36.8 g and 38.8 g and 34.6 g and 40.8 g and 45 g
CC[C@H](C)[C@H](NC(C)=O)C(=O)N[C@H]1CSSC[C@@H](C(=O)N[C@H](C(N)=O)[C@@H](C)O)NC(=O)[C@H](CCCNC(=N)N)NC(=O)[C@H](Cc2c[nH]cn2)NC(=O)[C@H](C)NC(=O)CNC(=O)[C@H](Cc2c[nH]c3ccccc23)NC(=O)[C@H](CC(=O)O)NC(=O)[C@H](CCC(N)=O)NC(=O)[C@H](Cc2cn(C)c3ccccc23)NC(=O)[C@H](C(C)C)NC1=O,,"RP-HPLC, C18",28% acetonitrile isocratic,pH 7.4,,retention factor,5.901 ± 0.006
CCn1cc(C(=O)N2CCOCC2)c(=O)c2cc(NC3Cc4ccccc4C3)cnc21,,,"human, fasted","oral suspension, 15 mg single dose, arithmetic mean",,AUC(0-last),504 ng·h/mL
CC[C@H](C)CCCCC(=O)N[C@@H](CCN)C(=O)N[C@H](C(=O)N[C@@H](CCN)C(=O)N[C@H]1CCNC(=O)[C@H]([C@@H](C)O)NC(=O)[C@H](CCN)NC(=O)[C@H](CCN)NC(=O)[C@H](CC(C)C)NC(=O)[C@@H](Cc2ccccc2)NC(=O)[C@H](CCN)NC1=O)[C@@H](C)O,,,"human, mild renal insufficiency, urine","intravenous, 0.75 mg/kg, 0-6 h, arithmetic mean",,urinary excretion,1.5%
